Published values gathered from unrelated publications.
Each line is one published result; not all experiments were run side by side. ± marks the error that the study gave.

CCOc1c([C@H](C)n2nc(C)c3c(N)ncnc32)cc(Cl)c(F)c1[C@@H]1CNC(=O)C1 — LSM change in heart rate (previously treated B-cell malignancy patients; oral, dose not given): ≤ 5.13 bpm
CCn1c(=O)c(-c2cc(NC(=O)Nc3ccccc3)c(F)cc2Br)cc2cnc(NC)cc21 — mid-term stability accuracy (human plasma; 150 ng/mL, 1 weeks, 4 °C, low QC): 4.27%
CC(C)(C)c1ccc(C(O)CCCN2CCC(C(O)(c3ccccc3)c3ccccc3)CC2)cc1 (stereo not drawn) — mean blood pressure (male Hartley guinea pigs, anaesthetized; intravenous, 3 mg/kg over 10 min, after infusion): 37 ± 0.2 mmHg
O=C(Nc1nc2cccc(-c3ccc(CN4CCS(=O)(=O)CC4)cc3)n2n1)C1CC1 — patients with Cardiac disorders (rheumatoid arthritis patients; oral, 100 mg twice daily, 4 weeks, TEAE regardless of relatedness): 0%
COc1cc2c3c(n(CCCN4CCOCC4)c(=O)c2cc1OC)-c1cc2c(cc1C3=O)OCO2 — CL (beagle dog, male, plasma; intravenous infusion, 100 mg/m^2, 1 h infusion, vehicle 1): 58.2 ± 19 L/h/m²
C[C@H]1CN(C(=O)CC#N)[C@]12CCN(c1ncnc3[nH]ccc13)C2 — subjects with Fatigue (healthy human; oral, 1.5 mg, single dose): 12.5%
COc1cc(Nc2ncc3c(n2)-c2ccc(Cl)cc2C(c2c(F)cccc2OC)=NC3)ccc1C(=O)O — decreased white cell count incidence (patients; oral, dose not given, grade 4, any attribution, with: pembrolizumab): 17%
FC(F)(F)c1ccc(CNc2ccc(Cc3c[nH]c4ncc(Cl)cc34)cn2)cn1 — treatment-related adverse events (measured: weight increased; human, advanced solid tumours, non-TGCT cohort; oral, 1000 mg/day, grade 3 or higher): 0%
COc1ccc([C@@H](O)c2cc(-c3ncnc4cc(N5CCOCC5)ccc34)c(F)cc2Cl)nn1 — metabolism nutrition disorder TEAE (locally advanced rectal cancer patients; 50 mg, with: capecitabine and radiotherapy): 0%
C[C@H]1Oc2cc(cnc2N)-c2c(nn(C)c2C#N)CN(C)C(=O)c2ccc(F)cc21 — Tlast (human patients, plasma; oral, cycle 2 day 1, median, with: avelumab): 24 h
Cc1c(-c2ccc(N3CCc4cccc(C(=O)Nc5nc6ccccc6s5)c4C3)nc2C(=O)O)cnn1CC12CC3(C)CC(C)(C1)CC(OCCNCC[C@H](O)CO)(C3)C2 — plasma concentration (anaesthetized male beagle dog; iv infusion, 0.1 mg/kg/min, 105 min): < 4 ng/mL
CC(C)C[C@H](NC(=O)C[C@H](O)[C@H](CC(C)C)NC(=O)[C@H](Cc1c[nH]cn1)NC(=O)CNC(=O)[C@@H](NC(=O)[C@H](C)NC(=O)[C@H](Cc1c[nH]c2ccccc12)NC(=O)[C@H](CCC(N)=O)NC(=O)[C@@H](Cc1ccccc1)NC(=O)COCCOCCNC(=O)CCC(C(=O)O)N1CCN(CC(=O)O)CCN(CC(=O)O)CCN(CC(=O)O)CC1)C(C)C)C(N)=O (stereo partly drawn) [lutetium-177 labelled] — tissue uptake (BALB/c nu/nu mice, large intestine; 100 pmol, 1 h, with: PA 300 µg): 1.2 ± 0.4 %ID/g
CCCCCCCOc1ccc(CCC(N)(CO)CO)cc1C(F)(F)F.Cl — AUC(0-tau) (healthy men, plasma; oral, 0.125 mg, day 1): 0.525 ng·h/mL
CN(CCC(=O)O)C(=O)c1ccc2c(c1)CC[C@@H]1[C@@H]2CC[C@]2(C)C(c3cncc(F)c3)=CC[C@@H]12 — total bilirubin (premenopausal women, endometriosis pain, serum; 60 mg twice daily, visit 6, median): 0.9 mg/dL
CC(F)(F)c1cc(F)ccc1-c1sc2cc(O)ccc2c1Oc1ccc(/C=C/C(=O)O)cc1 — Tlast (human, serum; oral, 600 mg once daily, cycle 1 day 28, fasted, median): 23.9 h
Cn1cc(Nc2nccc(-c3ccc4c(c3)CN(C3COC3)CC[C@H]4NC(=O)c3cn(C(C)(C)C)nn3)n2)cn1 — CD8+ T cell count change (human, whole blood; 150 mg twice daily, day 7; baseline: pre-dose baseline): -3.15%
Cc1ccc([C@@H]2O[C@H](CO)[C@@H](O)[C@H](O)[C@H]2O)cc1Cc1ccc(-c2ccc(F)cc2)s1 — urinary magnesium excretion change (Japanese type 2 diabetes patients; 25 mg, day 4, 24 h urine collection; baseline: baseline): -6.53 mg
CC(C)Oc1ccc2cc(C(=N)N)ccc2c1 — pKa: 11.3
CNC(=O)c1ccc(-c2cnc3ncc(Cc4ccc5ncccc5c4)n3n2)cc1F — subjects with adverse events (healthy human subjects; oral, 400 mg, grade 3, all causality, with: rifampicin 600 mg/day): 3.8%
CC[C@H](C)[C@H](NC(=O)[C@H](C)N)C(=O)N[C@@H](CCCCN)C(=O)N[C@@H](C)C(=O)N[C@H](C(=O)N[C@@H](C)C(=O)N[C@@H](CCCCN)C(=O)N[C@@H](C)C(=O)N[C@@H](C)C(=O)NCC(N)=O)[C@@H](C)CC — mean residue ellipticity (circular dichroism at 222 nm; 30% TFE; 100 µM): -1630 deg cm2/dmol
CC(=O)OC[C@H]1O[C@@H]([S-])[C@H](OC(C)=O)[C@@H](OC(C)=O)[C@@H]1OC(C)=O.CCP(CC)CC.[Au+] — EC90 (Toxoplasma gondii; parasite growth; HFF, bradyzoite, glutamine-induced): 1.46 µM
Cc1cc(C#N)cc(C)c1Oc1nc(Nc2ccc(C#N)cc2)nc(N)c1Br — maximum supersaturated concentration (solvent-shift UV; FaSSIF with 0.1% PVP-VA): 110 µg/mL
Cc1ccc(Sc2ccccc2N2CCNCC2)c(C)c1 — participants with TEAE (measured: metrorrhagia; healthy adult men; oral, 10 mg daily, 12 days): 0%
COc1cc(C(=O)N2CCC3(CC2)CC(=O)c2c(cnn2C(C)C)C3)cc(-c2ccc(C(=O)O)cc2)n1 — placebo-adjusted change from baseline (measured: HDL cholesterol; human, fasting serum; 10 mg every 12 h, day 13, adjusted geometric mean; baseline: baseline and placebo): -5.8%
Cn1cc([C@H]2C[C@H]3CSC(N)=N[C@@]3(c3ccc(F)cc3F)CO2)cn1 — plasma concentration (male 129/SVE mouse, plasma; subcutaneous, 10 mg/kg, 3 h): 884 nM
CC(C)C[C@H](NC(=O)[C@H](CCc1ccccc1)NC(=O)CN1CCOCC1)C(=O)N[C@@H](Cc1ccccc1)C(=O)N[C@@H](CC(C)C)C(=O)[C@@]1(C)CO1 — intercompartmental clearance (population PK, two-compartment model; adult relapsed/refractory DLBCL patients, plasma; intravenous infusion, dose not given, with: R-ICE): 12.5 L/h
COc1cc2[nH]c(C)c(-c3ccc(C(C)(C)C)cc3)c(=O)c2cc1Cl — Papp (PAMPA; pH 7.4): < 5 ×10⁻⁶ cm/s
CC(=O)Oc1ccccc1C(=O)O — mean blood pressure (male Hartley guinea pigs, anaesthetized; intravenous, 3 mg/kg group, baseline before infusion): 37 ± 0.1 mmHg
COc1ncc(-c2nc3c(n2C(C)C)[C@H](c2ccc(Cl)cc2)N(c2cc(Cl)cn(C)c2=O)C3=O)c(OC)n1 — median Tmax (human patients, plasma; oral, 30 mg, low-dose arm, cycle 1 day 8): 4 h
CCn1cc(C(=O)N2CCOCC2)c(=O)c2cc(NC3Cc4ccccc4C3)cnc21 — AUC(0-inf) (human, fed; oral suspension, 600 mg single dose, arithmetic mean): 24700 ng·h/mL
[18F]c1ccc(-c2ccc3c(c2)[nH]c2ccncc23)cn1 — SUV (ex vivo biodistribution; APP/PS1 mouse, AD model, cortex; intravenous, 30 min): 0.39 ± 0.118
Cc1cc(-c2nccc3c2ccn3CC(=O)Nc2ccc(-c3cnccn3)cn2)ccn1 — subjects with nasal discomfort (human; 5 mg once daily, multiple ascending dose): 12.5%
COc1ccc2[nH]c([S+]([O-])Cc3ncc(C)c(OC)c3C)nc2c1 (stereo not drawn) — t1/2 (healthy Chinese volunteers, CYP2C19 poor metabolizers; oral, 20 mg, fasted): 2.25 ± 0.49 h
O=C(O)CCC(=O)O.[2H]C([2H])([2H])Oc1cc(C)c2[nH]ccc2c1CN1CC[C@@H](C2CC2)C[C@H]1c1ccc(C(=O)O)cc1 — subjects with TEAE Eczema (multiple ascending dose; healthy Chinese subjects; 100 mg twice daily): 12.5%
CCCOc1ccc([C@H]2CNC(=O)N2c2ccc3[nH]cnc3c2)cc1 — effective half-life (human volunteers fasted, plasma; oral tablet, 200 mg single dose, crossover, geometric mean): 2.27 h
CNC(=O)c1ccc(-c2cnc3ncc(Cc4ccc5ncccc5c4)n3n2)cc1F — unbound fraction (ultrafiltration; human, plasma; oral, 200 mg, 3 h post-dose, mean): 0.0335
CCc1cc2ncc(CN3CCN(c4ccc(C(=O)NC)nc4)CC3)cc2[nH]c1=O — white blood cell count ratio (female rat, blood; oral, 50 mg/kg/day, 4 weeks; baseline: vehicle control): 0.64
COc1nc(-c2cc(C)c(N[C@@H](C)c3cc(F)cc(F)c3)nn2)ccc1-n1cnc(C)c1 — AUC(0-t) (cynomolgus monkey, male, plasma; intravenous, 1 mg/kg): 3130 ng·h/mL
COc1cc2nccc(Oc3ccc(NC(=O)c4cc5c(n(-c6ccccc6)c4=O)CCCC5=O)nc3)c2cc1OC — grade ≥3 Leucocytosis patients (relapsed or refractory AML; oral, all dose levels): 10%
O=C(CCCN1CC=C(n2c(=O)[nH]c3ccccc32)CC1)c1ccc(F)cc1 — mean blood pressure (male Hartley guinea pigs, anaesthetized; intravenous, 0.03 mg/kg over 10 min, after infusion): 29 ± 0.2 mmHg
Cc1ccc(C(=O)Nc2ccnc(S(N)(=O)=O)c2)c(N2CCCC(F)(F)CC2)n1 — unbound plasma concentration (rhesus monkey, plasma; oral, 1 mg/kg): 19 to 94 nM
O=C1C(O)=C([C@H]2CC[C@H](c3ccc(Cl)cc3)CC2)C(=O)c2ccccc21 — inhibition (Toxoplasma gondii; ex vivo bradyzoite plaques; ME49; 3 times EC90, continuous exposure): inhibited
CNC(=O)c1ccc(-c2cnc3ncc(Cc4ccc5ncccc5c4)n3n2)cc1F — bilirubin increase incidence (all grades) (CTCAE v4.0, any causality; human cancer patients; oral, dose not given, dose escalation): 18%
C=CC(=O)N(C)CCOc1c(N)ncnc1-c1cc(F)cc(NC(=O)c2ccc(C3CC3)cc2F)c1C — mean residence time (human, whole blood; oral, 15 mg, single ascending dose): 0.98 h
Cc1ncc2c(c1O)COC2c1ccc(Cl)cc1 (stereo not drawn) — pKa (acidic): 8.5
COc1cc(/C=N\NC(=O)c2ccc(Br)cc2)ccc1OC(=O)c1cccs1 — maximum haemolysis (sheep erythrocytes; 1 h, pH 7.5): 2.4%
Cc1nc(C(=O)NCC(=O)O)c(O)c2ccc(Oc3ccccc3)cc12 — pKa (basic): < 2
O=C(N[C@H](Cc1c[nH]c2ccccc12)C(=O)Nc1ccncc1)c1ccc(-c2cc(C(F)(F)F)ccc2F)cc1F — concentration (Swiss Webster mouse, female, heart; oral, 50 mg/kg, 2 h, 20% HPβCD vehicle): 1220 nM

Some of these lines once more:
Cn1cc([C@H]2C[C@H]3CSC(N)=N[C@@]3(c3ccc(F)cc3F)CO2)cn1 — plasma concentration (male 129/SVE mouse, plasma; subcutaneous, 10 mg/kg, 3 h): 884 nM
CC(C)C[C@H](NC(=O)[C@H](CCc1ccccc1)NC(=O)CN1CCOCC1)C(=O)N[C@@H](Cc1ccccc1)C(=O)N[C@@H](CC(C)C)C(=O)[C@@]1(C)CO1 — intercompartmental clearance (population PK, two-compartment model; adult relapsed/refractory DLBCL patients, plasma; intravenous infusion, dose not given, with: R-ICE): 12.5 L/h
COc1cc2[nH]c(C)c(-c3ccc(C(C)(C)C)cc3)c(=O)c2cc1Cl — Papp (PAMPA; pH 7.4): < 5 ×10⁻⁶ cm/s
